# Measurements from different studies.
# Each line is one published result; not all experiments were run side by side. Several values in a cell are separate wells, animals, samples, runs or records. Numbers after ± are the reported error.
# Ppara: Peroxisome proliferator-activated receptor alpha (Ppara, Mus musculus, UniProt P23204)
# Chain of UniProt P23204 (whole entry, looked up): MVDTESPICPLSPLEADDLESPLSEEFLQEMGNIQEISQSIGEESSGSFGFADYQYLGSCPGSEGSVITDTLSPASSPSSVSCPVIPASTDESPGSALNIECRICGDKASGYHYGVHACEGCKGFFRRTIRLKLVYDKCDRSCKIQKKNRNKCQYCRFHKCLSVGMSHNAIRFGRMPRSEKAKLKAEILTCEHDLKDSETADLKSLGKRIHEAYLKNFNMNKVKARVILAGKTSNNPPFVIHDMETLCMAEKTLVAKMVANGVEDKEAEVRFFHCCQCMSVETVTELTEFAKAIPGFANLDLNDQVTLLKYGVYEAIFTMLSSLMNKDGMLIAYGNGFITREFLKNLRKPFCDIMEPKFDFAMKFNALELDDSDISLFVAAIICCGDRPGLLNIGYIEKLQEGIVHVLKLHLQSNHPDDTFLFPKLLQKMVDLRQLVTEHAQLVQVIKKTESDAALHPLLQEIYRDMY
# uncharacterized protein: uncharacterized protein (Bos taurus, UniProt E1BM68)
# NPY1R: Neuropeptide Y receptor type 1 (NPY1R, Homo sapiens, UniProt P25929)
# Chain of UniProt P25929 (whole entry, looked up): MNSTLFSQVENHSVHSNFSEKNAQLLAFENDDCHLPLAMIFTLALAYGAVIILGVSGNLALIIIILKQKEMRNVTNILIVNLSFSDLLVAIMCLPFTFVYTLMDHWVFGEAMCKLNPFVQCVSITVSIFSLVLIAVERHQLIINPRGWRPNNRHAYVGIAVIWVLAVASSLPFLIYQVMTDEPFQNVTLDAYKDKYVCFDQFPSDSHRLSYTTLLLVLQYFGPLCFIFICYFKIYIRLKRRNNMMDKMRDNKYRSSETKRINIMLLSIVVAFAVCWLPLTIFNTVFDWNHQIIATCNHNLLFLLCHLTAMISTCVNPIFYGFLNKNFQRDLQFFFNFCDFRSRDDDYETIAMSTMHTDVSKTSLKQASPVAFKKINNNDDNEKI
# Olfactory receptor: Olfactory receptor (Mus musculus, UniProt Q8VGQ8)
# USP3 ZnF-UBD domain: Ubiquitin carboxyl-terminal hydrolase 3, ZnF-UBD domain (USP3, Homo sapiens, UniProt Q9Y6I4)
# Chain of UniProt Q9Y6I4 (whole entry, looked up): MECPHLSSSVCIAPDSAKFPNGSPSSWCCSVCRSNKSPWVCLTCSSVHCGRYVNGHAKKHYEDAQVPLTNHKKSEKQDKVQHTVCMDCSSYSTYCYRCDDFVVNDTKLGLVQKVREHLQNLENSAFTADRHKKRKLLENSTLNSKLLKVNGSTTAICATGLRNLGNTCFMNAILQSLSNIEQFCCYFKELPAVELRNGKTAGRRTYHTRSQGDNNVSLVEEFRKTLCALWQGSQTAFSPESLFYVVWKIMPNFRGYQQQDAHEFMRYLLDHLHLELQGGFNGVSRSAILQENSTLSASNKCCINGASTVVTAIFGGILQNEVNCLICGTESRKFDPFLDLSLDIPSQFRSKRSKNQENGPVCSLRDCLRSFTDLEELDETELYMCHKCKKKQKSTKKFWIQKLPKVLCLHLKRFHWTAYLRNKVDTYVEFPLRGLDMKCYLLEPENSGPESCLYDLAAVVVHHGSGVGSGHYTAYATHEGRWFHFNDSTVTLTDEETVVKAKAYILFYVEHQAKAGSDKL
# Chain of UniProt Q8N884 (whole entry, looked up): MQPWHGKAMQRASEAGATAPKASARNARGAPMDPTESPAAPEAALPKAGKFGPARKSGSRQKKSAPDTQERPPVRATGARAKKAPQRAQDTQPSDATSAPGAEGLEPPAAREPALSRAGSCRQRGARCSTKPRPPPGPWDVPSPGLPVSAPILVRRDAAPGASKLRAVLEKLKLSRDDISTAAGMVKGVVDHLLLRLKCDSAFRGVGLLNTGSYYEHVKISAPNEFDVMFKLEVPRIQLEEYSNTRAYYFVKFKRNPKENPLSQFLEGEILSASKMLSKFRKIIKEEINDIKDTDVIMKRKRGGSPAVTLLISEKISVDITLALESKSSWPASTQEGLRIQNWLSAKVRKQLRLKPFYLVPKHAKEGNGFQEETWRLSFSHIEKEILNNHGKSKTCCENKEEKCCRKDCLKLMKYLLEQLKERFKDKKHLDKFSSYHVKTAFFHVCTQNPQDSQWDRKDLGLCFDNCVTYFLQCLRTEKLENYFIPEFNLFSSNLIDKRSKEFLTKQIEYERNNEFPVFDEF
# Chain of UniProt Q9BQB4 (whole entry, looked up): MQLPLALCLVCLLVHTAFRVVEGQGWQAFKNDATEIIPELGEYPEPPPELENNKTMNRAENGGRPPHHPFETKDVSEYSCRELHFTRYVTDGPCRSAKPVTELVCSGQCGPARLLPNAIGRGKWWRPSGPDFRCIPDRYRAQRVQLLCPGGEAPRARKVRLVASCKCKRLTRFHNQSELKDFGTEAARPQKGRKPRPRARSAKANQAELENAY
# Chain of UniProt P19784 (whole entry, looked up): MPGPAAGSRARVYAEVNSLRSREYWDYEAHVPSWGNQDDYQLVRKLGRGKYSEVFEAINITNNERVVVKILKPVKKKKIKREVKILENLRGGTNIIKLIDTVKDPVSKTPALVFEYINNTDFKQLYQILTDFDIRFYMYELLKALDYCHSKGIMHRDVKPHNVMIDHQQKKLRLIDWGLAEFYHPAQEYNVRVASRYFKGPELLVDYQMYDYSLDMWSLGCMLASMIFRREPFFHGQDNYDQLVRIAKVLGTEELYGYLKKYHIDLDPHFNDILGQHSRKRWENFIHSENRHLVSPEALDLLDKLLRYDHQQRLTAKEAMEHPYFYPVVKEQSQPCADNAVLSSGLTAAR
# Chain of UniProt Q08499 (whole entry, looked up): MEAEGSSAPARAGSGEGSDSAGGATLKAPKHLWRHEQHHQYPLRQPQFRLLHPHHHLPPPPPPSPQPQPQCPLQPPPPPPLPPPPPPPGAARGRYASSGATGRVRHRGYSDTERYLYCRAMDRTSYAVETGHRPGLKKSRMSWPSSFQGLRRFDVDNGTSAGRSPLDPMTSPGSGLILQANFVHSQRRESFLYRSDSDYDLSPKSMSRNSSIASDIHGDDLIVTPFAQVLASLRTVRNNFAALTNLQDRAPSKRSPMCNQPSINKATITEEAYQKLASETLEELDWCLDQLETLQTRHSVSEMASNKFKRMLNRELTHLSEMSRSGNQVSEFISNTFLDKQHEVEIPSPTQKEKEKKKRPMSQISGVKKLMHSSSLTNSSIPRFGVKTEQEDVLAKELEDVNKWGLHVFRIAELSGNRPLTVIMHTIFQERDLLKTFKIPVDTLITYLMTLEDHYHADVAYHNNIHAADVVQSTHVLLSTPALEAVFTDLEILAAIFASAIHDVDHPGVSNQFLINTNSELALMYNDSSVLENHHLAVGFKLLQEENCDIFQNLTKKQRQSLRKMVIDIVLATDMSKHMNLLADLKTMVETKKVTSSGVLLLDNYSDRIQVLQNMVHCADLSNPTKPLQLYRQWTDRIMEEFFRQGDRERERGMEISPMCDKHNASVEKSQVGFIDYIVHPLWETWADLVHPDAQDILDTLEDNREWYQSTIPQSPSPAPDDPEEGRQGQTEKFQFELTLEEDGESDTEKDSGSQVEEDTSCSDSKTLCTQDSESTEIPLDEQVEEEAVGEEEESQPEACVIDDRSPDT
# Chain of UniProt P46098 (whole entry, looked up): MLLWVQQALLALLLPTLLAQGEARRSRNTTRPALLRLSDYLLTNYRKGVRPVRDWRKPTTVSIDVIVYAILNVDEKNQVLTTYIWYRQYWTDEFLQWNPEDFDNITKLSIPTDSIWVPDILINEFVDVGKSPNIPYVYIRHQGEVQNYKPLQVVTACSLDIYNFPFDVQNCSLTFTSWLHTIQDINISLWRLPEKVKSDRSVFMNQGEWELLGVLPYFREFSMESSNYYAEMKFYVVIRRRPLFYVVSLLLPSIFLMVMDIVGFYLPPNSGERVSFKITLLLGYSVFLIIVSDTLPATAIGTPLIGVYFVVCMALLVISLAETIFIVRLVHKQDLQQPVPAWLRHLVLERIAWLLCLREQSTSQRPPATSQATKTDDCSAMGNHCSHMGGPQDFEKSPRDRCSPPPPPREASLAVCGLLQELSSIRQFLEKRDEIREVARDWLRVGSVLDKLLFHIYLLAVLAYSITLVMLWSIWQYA
# Chain of UniProt P34995 (whole entry, unmodified, looked up): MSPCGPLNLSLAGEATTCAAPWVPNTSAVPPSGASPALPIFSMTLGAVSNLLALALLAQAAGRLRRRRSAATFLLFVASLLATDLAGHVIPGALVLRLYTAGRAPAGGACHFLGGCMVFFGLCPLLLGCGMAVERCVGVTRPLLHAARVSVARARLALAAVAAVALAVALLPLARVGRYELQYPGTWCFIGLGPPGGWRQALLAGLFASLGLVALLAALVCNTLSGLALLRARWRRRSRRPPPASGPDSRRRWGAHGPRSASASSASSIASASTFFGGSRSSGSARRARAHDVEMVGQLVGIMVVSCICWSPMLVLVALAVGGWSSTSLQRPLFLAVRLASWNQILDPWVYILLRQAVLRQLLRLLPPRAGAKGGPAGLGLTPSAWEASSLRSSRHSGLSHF
# Chain of UniProt P04150 (whole entry, looked up): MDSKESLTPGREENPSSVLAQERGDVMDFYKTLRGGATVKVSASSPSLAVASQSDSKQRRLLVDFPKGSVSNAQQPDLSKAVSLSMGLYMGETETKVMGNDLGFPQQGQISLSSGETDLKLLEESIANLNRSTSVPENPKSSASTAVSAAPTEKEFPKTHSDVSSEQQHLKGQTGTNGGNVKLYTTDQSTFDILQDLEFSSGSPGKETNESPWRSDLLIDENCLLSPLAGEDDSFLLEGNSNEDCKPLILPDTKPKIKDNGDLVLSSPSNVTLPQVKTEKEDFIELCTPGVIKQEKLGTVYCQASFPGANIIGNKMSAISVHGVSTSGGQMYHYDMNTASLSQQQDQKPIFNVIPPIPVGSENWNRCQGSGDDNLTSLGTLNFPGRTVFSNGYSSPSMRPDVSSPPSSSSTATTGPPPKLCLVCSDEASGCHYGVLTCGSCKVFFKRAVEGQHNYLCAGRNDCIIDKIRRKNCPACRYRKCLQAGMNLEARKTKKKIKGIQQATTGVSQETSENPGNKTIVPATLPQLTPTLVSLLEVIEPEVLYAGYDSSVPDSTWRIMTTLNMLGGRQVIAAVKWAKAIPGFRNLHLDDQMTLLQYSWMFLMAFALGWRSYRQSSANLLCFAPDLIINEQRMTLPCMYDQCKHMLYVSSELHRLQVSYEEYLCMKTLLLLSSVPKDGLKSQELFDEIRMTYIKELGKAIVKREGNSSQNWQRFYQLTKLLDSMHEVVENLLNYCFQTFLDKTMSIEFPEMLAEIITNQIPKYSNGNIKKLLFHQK
Compound,target or system,assay,test system,conditions,scale,quantity,value
CSc1ccc(C(=O)/C=C/c2cc(C)c(OC(C)(C)C(=O)O)c(C)c2)cc1,Ppara,"receptor activation, agonist, luciferase reporter",,"serum-free, species mouse",,EC50,0.3 µM
O=C(NCCN1CCCC1=O)c1ccc([C@H]2[C@@H](F)[C@@H](F)C[C@@H](F)[C@H]2F)cc1,,liver microsome stability,dog liver microsomes,1 µM,,hepatic clearance,7.3 mL/min/kg
CCc1c(C)nc(-c2ccc(Cl)s2)nc1Nc1ccc(CC(=O)O)cc1,"PDE4D (Homo sapiens, UniProt Q08499)","reporter gene, dual luciferase",,,,EC50,25.9 ± 4.62 µM
COc1cnccn1,uncharacterized protein,"cAMP level, agonist, cAMP luminescence",HEK293 cells,,,EC50,> 1500 µM
CO[C@H]1O[C@H](COS(=O)(=O)O)[C@@H](O[C@@H]2O[C@@H](C(=O)O)[C@@H](O[C@H]3O[C@H](COS(=O)(=O)O)[C@@H](O[C@@H]4O[C@H](C(=O)O)[C@@H](O[C@H]5O[C@H](COS(=O)(=O)O)[C@@H](O)[C@H](O)[C@H]5NS(=O)(=O)O)[C@H](O)[C@H]4O)[C@H](OS(=O)(=O)O)[C@H]3NS(=O)(=O)O)[C@H](O)[C@H]2OS(=O)(=O)O)[C@H](O)[C@H]1NS(=O)(=O)O,"Sclerostin (SOST, Homo sapiens, UniProt Q9BQB4)",fluorescence polarization competition,,"corrected value, added: TAMRA-labelled probe",,EC50,1610 ± 860 µM
COc1nccnc1CC(C)C,uncharacterized protein,"cAMP level, agonist, cAMP luminescence",HEK293 cells,,,EC50,257 ± 34.5 µM
CCCCC[C@H](O)/C=C/[C@H]1[C@H](O)CC(=O)[C@@H]1C/C=C\CCCC(=O)O,"PTGER1 (Homo sapiens, UniProt P34995, P39S)","IP1 accumulation, agonist",AD293,EP1 P39S mutant,,EC50,0.0056 µM
O=C(Nc1ccn(Cc2ccc(O)cc2C(F)(F)F)n1)c1c(F)cccc1F,"HTR3A (Homo sapiens, UniProt P46098)","ion channel activity, agonist",cells overexpressing HTR3A,human receptor,,EC50,> 10 µM
COc1cc(Nc2ncc3c(n2)-c2ccc(Cl)cc2C(c2c(F)cccc2OC)=NC3)ccc1C(=O)NCCOCCOCCNC(=O)COc1cccc2c1C(=O)N(C1CCC(=O)NC1=O)C2=O (stereo not drawn),"CSNK2A2 (Homo sapiens, UniProt P19784)","binding, kinobead competition",MV4-11 cell lysate,,,EC50,> 30 µM
CCOC(=O)c1cnc2c(c(C)nn2-c2ccc(Cl)cc2)c1NCc1ccc(OC)cc1,NPY1R,"cAMP accumulation, agonist",SK-N-MC,,,EC50,16 µM
Cc1nn(-c2nc3ccccc3[nH]2)c(O)c1C(c1ccccn1)c1c(C)nn(-c2nc3ccccc3[nH]2)c1O,"Cyclic GMP-AMP synthase, catalytic domain; with DNA (CGAS, Homo sapiens, UniProt Q8N884)","cGAS phase separation, inhibitor",,,,EC50,6.72 µM and 8.67 µM
O=C(c1ccc(C2CCCCC2)cc1)N1CC(O)C1,,hepatocyte stability,cryopreserved human hepatocytes,1 µM,,hepatic clearance,14 mL/min/kg
COc1c([C@H]2[C@H](C(=O)Nc3ccnc(C(N)=O)c3)O[C@@](C)(C(F)(F)F)[C@H]2C)ccc(F)c1F,"NR3C1 (Homo sapiens, UniProt P04150)",agonist,,,,EC50,≥ 30 µM
CCO[C@H](COc1ccc(C(F)(F)F)cc1)CSc1ccc(OCC(=O)O)c(C)c1,Ppara,"receptor activation, agonist, luciferase reporter",,"serum-free, species mouse",,EC50,7 µM
CCc1nccnc1OC,Olfactory receptor,"cAMP, agonist",HEK293 transfected with Olfactory receptor,,,EC50,811 ± 27.4 µM
CCO[C@@H](Cc1ccc(OCCn2c(C)ccc2-c2ccc(SC)cc2)cc1)C(=O)O,Ppara,"receptor activation, agonist, luciferase reporter",,"serum-free, species mouse",,EC50,0.4 µM
Cn1cc(-c2ccc(-c3cncc(Cl)c3N3CCC4(CCNC4=O)CC3)cc2)cn1,COLO 205,"gene expression, microarray, measured: SLPI mRNA",,"concentration not given, 6 h",baseline: untreated cells,log2 fold change,4.97
CCc1ncc(C)nc1CC,uncharacterized protein,"cAMP level, agonist, cAMP luminescence",HEK293 cells,,,EC50,23.5 ± 20.7 µM
CCOC(=O)c1cc(C(=O)OCC)c(-n2nc(C)cc2C)nc1O,NPY1R,"cAMP accumulation, agonist",SK-N-MC,,,EC50,63 µM
C=Cc1cnccn1,uncharacterized protein,"cAMP level, agonist, cAMP luminescence",HEK293 cells,,,EC50,> 1500 µM
O=C(O)CC1Oc2ccccc2NC1=O (stereo not drawn),USP3 ZnF-UBD domain,,,,,Kd,> 1000 µM
C=CCc1ccc(OC)c(OC)c1,Olfactory receptor,"cAMP, agonist",HEK293 transfected with Olfactory receptor,,,EC50,279 ± 36.7 µM
O=C(O)CCc1cnccn1,USP3 ZnF-UBD domain,,,,,Kd,> 1000 µM
CC[C@H](C)[C@H](NC(=O)[C@H](Cc1ccccc1)NC(=O)[C@H](CCC(=O)O)NC(=O)[C@H](CCCNC(=N)N)NC(=O)[C@H](C)NC(=O)[C@H](C)NC(=O)[C@H](CCC(N)=O)NC(=O)[C@H](CCC(=O)O)NC(=O)[C@H](CCC(=O)O)NC(=O)[C@H](CC(C)C)NC(=O)[C@H](Cc1ccc(O)cc1)NC(=O)[C@H](CO)NC(=O)[C@H](CO)NC(=O)[C@@H](NC(=O)[C@H](CC(=O)O)NC(=O)[C@H](CO)NC(=O)[C@@H](NC(=O)[C@H](Cc1ccccc1)NC(=O)[C@@H](NC(=O)CNC(=O)[C@H](CCC(=O)O)NC(=O)[C@H](C)NC(=O)CCc1c[nH]cn1)[C@@H](C)O)[C@@H](C)O)C(C)C)C(=O)N[C@@H](C)C(=O)N[C@@H](Cc1c[nH]c2ccccc12)C(=O)N[C@@H](CC(C)C)C(=O)N[C@H](C(=O)N[C@@H](CCCNC(=N)N)C(=O)NCC(=O)N[C@@H](CCCNC(=N)N)C(=O)N[C@@H](CCCCNC(=O)COCCOCCNC(=O)COCCOCCNC(=O)CC[C@H](NC(=O)CCCCCCCCCCCCCCCCC(=O)O)C(=O)O)C(=O)O)C(C)C,"GLP1R (Homo sapiens, UniProt P43220)","cAMP reporter gene, agonist, CRE luciferase",BHK,"without Zr, 1% HSA",,EC50,8.4e-05 µM

# Excerpt of the above:
Compound,target or system,assay,test system,conditions,scale,quantity,value
CCO[C@@H](Cc1ccc(OCCn2c(C)ccc2-c2ccc(SC)cc2)cc1)C(=O)O,Ppara,"receptor activation, agonist, luciferase reporter",,"serum-free, species mouse",,EC50,0.4 µM
Cc1nn(-c2nc3ccccc3[nH]2)c(O)c1C(c1ccccn1)c1c(C)nn(-c2nc3ccccc3[nH]2)c1O,"Cyclic GMP-AMP synthase, catalytic domain; with DNA (CGAS, Homo sapiens, UniProt Q8N884)","cGAS phase separation, inhibitor",,,,EC50,6.72 µM and 8.67 µM
O=C(NCCN1CCCC1=O)c1ccc([C@H]2[C@@H](F)[C@@H](F)C[C@@H](F)[C@H]2F)cc1,,liver microsome stability,dog liver microsomes,1 µM,,hepatic clearance,7.3 mL/min/kg
